Assay results of several laboratories.
Numbered parts are unrelated; each lists some results of a single study.

Block 1 — technique: protein-binding microarray; molecule type: double-stranded DNA, one strand shown; matrix: in vitro; tested at: 2540 nM top; notes: 60-bp whole probe; with: salmon DNA 0.4 mg/ml; relative to: random background probes; direction: higher = stronger binding; measurement: fitted relative affinity; constant ends, left off below: GCCTAGCAC … GTCTTGATTCGCTTGACGCTGCTG
Target: Interferon regulatory factor 3, full length, phosphomimetic (IRF3, Homo sapiens, UniProt Q14653, residues 1-427, S386D/S396D/S398D/S402D/T404D/S405D)
Target sequence (chain): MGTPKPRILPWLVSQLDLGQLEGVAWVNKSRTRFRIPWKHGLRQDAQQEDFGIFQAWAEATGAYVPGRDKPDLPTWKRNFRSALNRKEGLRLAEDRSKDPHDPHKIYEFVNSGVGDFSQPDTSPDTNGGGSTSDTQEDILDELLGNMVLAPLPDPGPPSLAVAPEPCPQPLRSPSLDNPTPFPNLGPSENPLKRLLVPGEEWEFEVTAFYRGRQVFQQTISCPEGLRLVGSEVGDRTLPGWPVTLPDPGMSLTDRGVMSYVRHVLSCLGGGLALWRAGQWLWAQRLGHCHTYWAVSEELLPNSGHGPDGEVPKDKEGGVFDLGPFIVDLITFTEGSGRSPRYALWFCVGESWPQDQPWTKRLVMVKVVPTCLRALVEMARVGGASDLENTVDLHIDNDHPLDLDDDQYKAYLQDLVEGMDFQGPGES
TGATGTCTGGGTCTTGGTTCGTGCTAG: -0.991 z-score
GACGGTTTCGGTGCCGGGACGTGCTAG: 4.93 z-score
TCATACTTCTCTTTTTGACTGTGCTAG: 1.62 z-score
GACGATTCCAGTTTCGATACGTGCTAG: 4.59 z-score
TTAGGTTTCGTGACTGGGTTAGTGCTA: 2.1 z-score
GACGGTCTCTGTTTCGGGACGTGCTAG: 2.89 z-score
TTTATTTTTACATTATTACCGTGCTAG: 1.51 z-score
TTAGGTTTCGACTTTCGGTTTGTGCTA: 4.54 z-score
TTAGATATCCTTCTCCTTTAGTGCTAG: 4.35 z-score
TTAGATTCCAGTATCGATTAGTGCTAG: 2.53 z-score
TTAGATTTCAGTTTCAATTAGTGCTAG: 3.97 z-score
TTAGAACTGAGTCGCGATTAGTGCTAG: -0.385 z-score
GACGGTCCCGGTTTCGGGACGTGCTAG: 2.71 z-score
TTATATATCAGACTGGATTAGTGCTAG: 0.605 z-score
GACTTTTTAGATATCTTTTTGTGCTAG: 1.23 z-score
GACGGGCTGGGTATCGGGACGTGCTAG: -0.622 z-score
GACGGATTGGGGTATCGGGACGTGCTA: -0.133 z-score

Block 2 — technique: protein-binding microarray; molecule type: double-stranded DNA, one strand shown; matrix: in vitro; tested at: 0.8 µM; notes: whole 60-bp probe, no competitor; direction: higher = stronger binding; measurement: fluorescence intensity; constant ends, left off below: … GTCTTGATTCGCTTGACGCTGCTG
Target: Centromere-binding protein 1, full length, N-terminal tag (CBF1, Saccharomyces cerevisiae, UniProt P17106, residues 1-351)
Sequence of UniProt P17106 (whole entry, looked up): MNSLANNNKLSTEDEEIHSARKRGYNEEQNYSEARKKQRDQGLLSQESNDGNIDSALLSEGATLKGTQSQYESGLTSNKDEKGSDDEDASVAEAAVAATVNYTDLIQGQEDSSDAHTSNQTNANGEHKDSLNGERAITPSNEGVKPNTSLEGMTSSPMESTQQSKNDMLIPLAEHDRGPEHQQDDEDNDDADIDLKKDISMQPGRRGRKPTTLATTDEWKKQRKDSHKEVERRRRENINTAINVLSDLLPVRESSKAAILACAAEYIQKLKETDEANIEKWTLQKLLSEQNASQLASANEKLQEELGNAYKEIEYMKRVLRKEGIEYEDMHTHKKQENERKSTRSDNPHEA
CTACATGTGAAAACGGTGATGATAGTAAAAAAATTC: 554 a.u.
CTAAGGTTCCTTCAGCATCAGAACAGATCACAATTC: 544 a.u.
GAAAACATTGGTGGTGGTCTGACATATTTTTTATAG: 620 a.u.
CCTAACTACTATATGTACGTGATATAGCTTCGTACA: 654 a.u.
CTACTTCCTCTTCTGCACGTTTCTCTAGTAATGTTC: 665 a.u.
CTAAACGTTGCCTTTGTCGTGATTTTGTGCGAGTTC: 563 a.u.
CTACCTTTTGATTATCACGTTGAGTGTCGAAGATTC: 1010 a.u.
GAAGATGCACAATGGCACATGCAGTTGGGTGCATAG: 645 a.u.
CTATTGAAAATGCAACACGTATACCTCCGGAGATTC: 510 a.u.
GAAGTATGTATGCATCAGCAGATTGACCGGTAATAG: 526 a.u.
CTAGAATGAATAGGTCATGAGAAAATGCATATTTTC: 544 a.u.
CTAGACGACGACGACCACGAAACACCTTTGATTTTC: 518 a.u.
GAATTTCCAAAGTCCCACGTTTAATAACCCACATAG: 569 a.u.
CTAATATGGCCACTCAACGTGCCCAAGGAAAGTTTC: 524 a.u.
GAAACTTTTTCGTTTAACGTGACGCATGGTGCGTAG: 1300 a.u.
CTAGCAAATTACCATGTGAGCGTGCGGGAATAATTC: 943 a.u.
CTATGTAGCCTTTGTTACGTGAATAACTTACTTTTC: 520 a.u.
CTACCTGAGATTCCCGACATCAGTAAGACATAGTTC: 518 a.u.
GAACTAGCTGAACATCAGCTCAATCGGACATAATAG: 502 a.u.
CTAATGTAATAGCCAGACGTGATTCCCCTAAACTTC: 543 a.u.
CTAACCTTTTCTTTTCACCTGCTCTGGCTATAATTC: 580 a.u.
GAATGCATCACTATTCAGGAGATGTATAGGCCATAG: 550 a.u.
GAATATTATGTATGTGATGTCAAGATGTAAAAATAG: 616 a.u.
GAACATATAGTCAGTCATGAGAATATATATTTATAG: 611 a.u.

Block 3 — technique: RNA Bind-n-Seq; molecule type: RNA; matrix: in vitro; tested at: 365 nM; relative to: no-protein control; direction: higher = stronger binding; measurement: RBNS enrichment (R)
Target: RNA binding protein fox-1 homolog 2, RRM domain, GST-SBP tag (RBFOX2, Homo sapiens, UniProt O43251-10, residues 100-194)
Notes: natural RNA segment, single round, ends assumed
Constant ends, left off below: GGGAGUUCUACAGUCCGACGAUC … UGGAAUUCUCGGGUGCCAA
Construct (chain): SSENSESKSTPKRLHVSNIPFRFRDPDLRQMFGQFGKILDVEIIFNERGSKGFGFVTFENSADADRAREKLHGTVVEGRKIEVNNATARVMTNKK
GAUUGACUUUAGUUGACUGCACUAUAUAAUAUAGAACUAUGAAUAUGUAGAAUAACAUGAAAAAUUGGAGGUGCUGGUGGUAUGGCUGACCCUGUUUCAGAAGCAGGAUA: 1.15
UAAUCCCAAAUGUCUGAAUGUUUUGCAGUGUGUAGGGGUUUGAGCCCCUUGUUCAUUCUCCUUCCUUUUUCCUCCCGCUUCCCUCUCCAUGAAGUGAUUCUGUUGACAAU: 0.483
GGCAGGAGGCCUGGGUCUCACCAGCAGGAGUGCGUGCAAGGUGGGAGGGUCGGUCCAUUACAGACCCACAUCCUGGAGCACCCCCAUCUCCAUGUGUGAAGUAGCUUCCU: 0.325
AGUGCCUCUACUGAAUUAUUCCUCUUUUAAAUGGUUAAUGAACCAAUAAUUUUUAAAUCAUACCAAAAAUAGUAAGAAAAUAUGCAAACACUCUGUGAUCAAACUUAAAA: 0.676
CGCCAUCUGGACUUCACUCAGGAGGCCUUCUAUCCCCUGUACUUGGCACUCCUCUUCUGAGGGGUUGCCCCUGUCCCUAUCUUAGGGGAGCUUGUCUCUUCCAUAGACCU: 0.146
GGAUACCACAUGUUUUAUAUAUAAAUAAUUACUGUUUAUGAUAUAGACAUUGAUAUUGACUAUUUAGAGAACCGUUGUUAAUUUUAAAACUAGCAAUCUAUAAAGUGCAC: 0.478
GCUUUCUCACCCAAGUUGGCCACUUACGCUAAUCCUGGAAGUAUGAUCACUUUUGAACCUGCCCCUUAACCUUGACGAGGAUACAAAAGUGAAAGCAUCAUCCCCCAAAG: 0.601
AAGAUCUCUCAAAUCUUGGAUUAUAAUUUUAUUAGAGUUUUGUAAUAAAAUUUAUUUUAUAACAAGAGCAAGGCGUAUACUAUUUUUCAGAAGACCAUUGGAUGGGCCAA: 0.534
ACCGCUGCACUAAGGACUCACGGCCCAGCGUCCACAAGACUGAGGCCCUGUCCCUGCUCAGAGAACAGAUCCGGAGCAGGUGGUCUGGUCAGUCAGGAUGGAACAGUGCU: 0.246
CCACGGCCCACCCUGGUCAGGCUGCCUCCUUAAUCGAGAAAACUACCUGGUGAUGCAAUCUUUUUUUUUUUUAAUUUAAUUUAAUUUUAAAAUAAAUGCUGCAUUGGUAA: 0.644
CACCCCCUUUUCAAAAAUUGAAAACUCUAUGAGUGUCUUUUUGAGACCAUAAAGCAGACUUUAGUAACUUUCUAUUUCUGUAAGUACUAAAUGUCUGGCAUUUUAAACUU: 0.389
GUGGACUGAUUUUGCCUCACAUUAAAAACUCAUCCCAUGGCCAGGGCGGGCCACUGUGCUCCUGGAAGAUUCUCUGUUUAAGCACCCAGUGUCUUGCCCUGGGUUUUCUA: 0.598

Block 4 — technique: DNA-protein interaction ELISA; molecule type: double-stranded DNA, one strand shown; matrix: in vitro, bacterial lysate; tested at: not given; notes: whole dsDNA probe, crude lysate protein; relative to: highest signal in screen; direction: higher = stronger binding; measurement: relative absorbance
Target: Probable WRKY transcription factor 11, DNA-binding domain (WRKY11, Arabidopsis thaliana, UniProt Q9SV15, residues 228-325)
Target sequence (chain): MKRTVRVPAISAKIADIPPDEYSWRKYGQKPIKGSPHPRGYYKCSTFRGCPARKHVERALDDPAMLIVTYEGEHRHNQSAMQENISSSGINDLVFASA
AAAAAATTTATACTTGATCCTGGCTTAAAA: 15.3 % of maximum
AAAAAATGCCCTTTTTATCTTTATGTAAAA: 17.3 % of maximum
AAAAAACGCTTTCAGTTTTGATCTTAAAAA: 12.7 % of maximum
AAAAAATTGCACCTGATACTAGGGTTAAAA: 15.8 % of maximum
AAAAAAACTATAGTCTTTGTCATGATAAAA: 17 % of maximum
AAAAAAAATACTGCGCACTTGCACTCAAAA: 14.7 % of maximum
AAAAAATTGCCGTCATAATTGTGGTAAAAA: 15.3 % of maximum
AAAAAATATGCTACTCCACCTTGATGAAAA: 16.1 % of maximum
AAAAAAGCTAGTGCTGCCACCAACGTAAAA: 13 % of maximum
AAAAAATCCCCCCGTTTCACTCTTGCAAAA: 16.1 % of maximum
AAAAAAGTCCGCCCTTAATTCATATTAAAA: 34 % of maximum
AAAAAAGATGATTAGTAATTGCGGAAAAAA: 19.9 % of maximum
AAAAAACCTTCCCCCTCTTCTGCCTTAAAA: 18.4 % of maximum
AAAAAAGACACTCTAATTCCGTAGGCAAAA: 10.7 % of maximum
AAAAAATGTCCATCTTGCGTCTGTATAAAA: 18.4 % of maximum
AAAAAACACTGCACTATTGGGAGTTCAAAA: 14.1 % of maximum
AAAAAACTGCTTGCCCCTGTCTCCATAAAA: 15.8 % of maximum
AAAAAAGTGTGTGGCTCAGGATTCCCAAAA: 14.1 % of maximum
AAAAAACTGGTGTATCTCCTCAATTAAAAA: 17 % of maximum
AAAAAATCCATTCTTCGCGTTTATCCAAAA: 13.5 % of maximum
AAAAAATTCCTGTCCGCTCTCGCTCCAAAA: 16.7 % of maximum
AAAAAACGTTGAACCTGGGCCTCAACAAAA: 36 % of maximum
AAAAAACCTTACCTCATCCCTATCCCAAAA: 14.7 % of maximum

Block 5 — technique: protein binding microarray; molecule type: double-stranded DNA, one strand shown; matrix: in vitro; tested at: not given; relative to: not given; direction: higher = stronger binding; measurement: E-score
Target: Histone acetyltransferase KAT6A, winged helix 2, GST fusion (KAT6A, Homo sapiens, UniProt Q92794, residues 85-181)
Notes: 8-mer, flanks averaged, mean of 2 arrays, mostly near background
Construct (chain): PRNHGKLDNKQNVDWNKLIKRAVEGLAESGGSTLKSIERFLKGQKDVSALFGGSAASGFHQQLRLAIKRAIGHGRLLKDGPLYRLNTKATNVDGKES
ATATAATG: -0.236
AGAAGTAA: -0.0645
ATCGTAGA: -0.106
CCATCTCA: -0.0926
AGTTGGAG: 0.0783
CACGTAAA: -0.191
ACCGCCAG: 0.107
AAAGGGGT: -0.23
AGTCCGTC: -0.126
GTGGGATA: 0.0118
CGCAAGGA: 0.0549
AGTGAAAA: 0.148
GCCCAGGC: 0.148
GTCTAAAC: 0.0517
AGGTCCAT: -0.0419
ACATGCCA: -0.141
